# Results of several laboratories.
# Lines come from different studies, so protocols differ. Several values in a cell are separate wells, animals, samples, runs or records. Numbers after ± are the reported error.
# ROPGAP3: ROPGAP3 (Arabidopsis thaliana, UniProt Q8GYY5)
# Sequence of UniProt Q8GYY5 (whole entry, looked up): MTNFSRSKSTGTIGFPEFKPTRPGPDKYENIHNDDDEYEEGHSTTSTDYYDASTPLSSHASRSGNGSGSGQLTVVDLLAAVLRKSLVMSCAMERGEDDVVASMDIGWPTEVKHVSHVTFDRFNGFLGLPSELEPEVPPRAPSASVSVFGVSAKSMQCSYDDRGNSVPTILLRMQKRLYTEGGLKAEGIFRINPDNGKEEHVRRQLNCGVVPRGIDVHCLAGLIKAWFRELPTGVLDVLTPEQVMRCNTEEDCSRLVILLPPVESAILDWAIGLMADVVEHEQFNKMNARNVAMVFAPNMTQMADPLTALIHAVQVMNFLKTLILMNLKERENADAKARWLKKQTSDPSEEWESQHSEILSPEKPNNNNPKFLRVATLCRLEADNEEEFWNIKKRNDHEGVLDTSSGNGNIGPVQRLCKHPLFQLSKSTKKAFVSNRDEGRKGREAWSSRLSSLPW
# B1: PIN3 167-286 (Arabidopsis thaliana, UniProt Q9S7Z8); chain ETAASIVSFKVESDVVSLDGHDFLETDAEIGDDGKLHVTVRKSNASRRSFCGPNMTPRPSNLTGAEIYSLSTTPRGSNFNHSDFYNMMGFPGGRLSNFGPADMYSVQSSRGPTPRPSNFE
# B2: ATG13 567-695 (Saccharomyces cerevisiae, UniProt Q06628); chain GGNSSTSALNSRRNSLDKSSNKQGMSGLPPIFGGESTSYHHDNKIQKYNQLGVEEDDDDENDRLLNQMGNSATKFKSSISPRSIDSISSSFIKSRIPIRQPYHYSQPTTAPFQAQAKFHKPANKLIDNG
# B3: NALCN DII-DIII linker 698-772 (Homo sapiens); chain WGEDNKYIDQKLRKSVFSIRARNLLEKETAVTKILRACTRQRMLSGSFEGQPAKERSILSVQHHIRQERRSLRHGSN
# B4: NuoA (Mycolicibacterium smegmatis, UniProt A0QU36); chain MALYTPILILGAIAAVFAVVSVGIALVIGPRRFNRSKLEAYECGIDPLPPVAAGLTGQRIPIRYYLIAMLFIVFDIEIVFLYPWAVAFDSLGLFAVIEMLLFMLTVFVAYAYVWRRGGLNWD
# B5: NYV1 (Saccharomyces cerevisiae, UniProt Q12255); chain MKRFNVSYVEVIKNGETISSCFQPFQKNENYGTITSANEQITPVIFHNLIMDMVLPKVVPIKGNKVTKMSMNLIDGFDCFYSTDDHDPKTVYVCFTLVDMPKILPIRILSGLQEYESNATNELLSSHVGQILDSFHEELVEYRNQTLNSSGNGQSSNGNGQNTISDIGDATEDQIKDVIQIMNDNIDKFLERQERVSLLVDKTSQLNSSSNKFRRKAVNIKEIMWWQKVKNITLLTFTIILFVSAAFMFFYLW
# B6: PIN3 167-479 (Arabidopsis thaliana, UniProt Q9S7Z8); chain ETAASIVSFKVESDVVSLDGHDFLETDAEIGDDGKLHVTVRKSNASRRSFCGPNMTPRPSNLTGAEIYSLSTTPRGSNFNHSDFYNMMGFPGGRLSNFGPADMYSVQSSRGPTPRPSNFEENCAMASSPRFGYYPGGGAGSYPAPNPEFSSTTTSTANKSVNKNPKDVNTNQQTTLPTGGKSNSHDAKELHMFVWSSNGSPVSDRAGLNVFGGAPDNDQGGRSDQGAKEIRMLVPDQSHNGETKAVAHPASGDFGGEQQFSFAGKEEEAERPKDAENGLNKLAPNSTAALQSKTGLGGAEASQRKNMPPASVM
# B7: atpD 1-464 (Acinetobacter baumannii, UniProt A3M144); chain MSSGRIIQIIGAVIDVEFERTSVPKIYDALQVDGTETTLEVQQQLGDGVVRTIAMGSTEGLKRGLTVTSTNAPISVPVGTATLGRIMDVLGRPIDEAGPVATEERLPIHRQAPSYAEQAASTDLLETGIKVIDLLCPFAKGGKVGLFGGAGVGKTVNMMELINNIAKAHSGLSVFAGVGERTREGNDFYHEMKDSNVLDKVAMVYGQMNEPPGNRLRVALTGLTMAEYFRDEKDENGKGRDVLLFVDNIYRYTLAGTEVSALLGRMPSAVGYQPTLAEEMGVLQERITSTKSGSITSIQAVYVPADDLTDPSPATTFAHLDATVVLSRDIASSGIYPAIDPLDSTSRQLDPLVVGQEHYEIARAVQNVLQRYKELKDIIAILGMDELAEEDKLVVYRARKIQRFFSQPFHVAEVFTGAPGKLVPLKETIRGFKGLLAGEYDHIPEQAFYMVGGIDEVIAKAEKL
# B8: Cbx1 (Mus musculus, UniProt P83917); chain MGKKQNKKKVEEVLEEEEEEYVVEKVLDRRVVKGKVEYLLKWKGFSDEDNTWEPEENLDCPDLIAEFLQSQKTAHETDKSEGGKRKADSDSEDKGEESKPKKKKEESEKPRGFARGLEPERIIGATDSSGELMFLMKWKNSDEADLVPAKEANVKCPQVVISFYEERLTWHSYPSEDDDKKDDKN
# B9: VPS29 (Arabidopsis thaliana, UniProt Q9STT2); chain MVLVLALGDLHVPHRAADLPPKFKSMLVPGKIQHIICTGNLCIKEIHDYLKTICPDLHIVRGEFDEDARYPENKTLTIGQFKLGLCHGHQVIPWGDLDSLAMLQRQLGVDILVTGHTHQFTAYKHEGGVVINPGSATGAYSSINQDVNPSFVLMDIDGFRAVVYVYELIDGEVKVDKIEFKKPPTTSSGP
# B10: ROP6 (Arabidopsis thaliana, UniProt Q38912); chain MSASRFIKCVTVGDGAVGKTCLLISYTSNTFPTDYVPTVFDNFSANVIVDGNTINLGLWDTAGQEDYNRLRPLSYRGADVFLLAFSLVSKASYENVSKKWVPELRHYAPGVPIILVGTKLDLRDDKQFFAEHPGAVPISTAQGEELKKLIGAPAYIECSAKTQQNVKAVFDAAIKVVLQPPKNKKKKKRKSQKGCSIL
# B11: CENPW K29A/K30A/R34A/E36A (Homo sapiens, UniProt Q5EE01); sequence looked up; chain MALSTIVSQRKQIKRKAPRGFLKRVFKRAAPQLALAKSGDLLVHLNCLLFVHRLAEESRTNACASKCRVINKEHVLAAAKVILKKSRG
# B12: CLTC 1-363 (Bos taurus, UniProt P49951); chain MAQILPIRFQEHLQLQNLGINPANIGFSTLTMESDKFICIREKVGEQAQVVIIDMNDPSNPIRRPISADSAIMNPASKVIALKAGKTLQIFNIEMKSKMKAHTMTDDVTFWKWISLNTVALVTDNAVYHWSMEGESQPVKMFDRHSSLAGCQIINYRTDAKQKWLLLTGISAQQNRVVGAMQLYSVDRKVSQPIEGHAASFAQFKMEGNAEESTLFCFAVRGQAGGKLHIIEVGTPPTGNQPFPKKAVDVFFPPEAQNDFPVAMQISEKHDVVFLITKYGYIHLYDLETGTCIYMNRISGETIFVTAPHEATAGIIGVNRKGQVLSVCVEEENIIPYITNVLQNPDLALRMAVRNNLAGAEEL
# B13: mutL 460-658 Q515A (Neisseria gonorrhoeae, UniProt Q5F8M6); chain SQSELPPLGFAIAQLLGIYILAQAEDSLLLIDMHAAAERVNYEKMKRQRQENGNLASQHLLIPVTFAASHEECAALADHAETLAGFGLELSDMGGNTLAVRAAPVMLGKSDVVSLARDVLGELAQVGSSQTIASHENRILATMSCHGSIRAGRRLTLPEMNALLRDMENTPRSNQCNHGRPTWVKLTLKELDTLFLRGQ
# B14: Atg32 1-381 (Saccharomyces cerevisiae, UniProt P40458); chain MVLEYQQREGKGSSSKSMPPDSSSTTIHTCSEAQTGEDKGLLDPHLSVLELLSKTGHSPSPMGQNLVTSIDISGNHNVNDSISGSWQAIQPLDLGASFIPERCSSQTTNGSILSSSDTSEEEQELLQAPAADIINIIKQGQEGANVVSPSHPFKQLQKIISLPLPGKEKTPFNEQDDDGDEDEAFEEDSVTITKSLTSSTNSFVMPKLSLTQKNPVFRLLILGRTGSSFYQSIPKEYQSLFELPKYHDSATFPQYTGIVIIFQELREMVSLLNRIVQYSQGKPVIPICQPGQVIQVKNVLKSFLRNKLVKLLFPPVVVTNKRDLKKMFQRLQDLSLEYGEDVNEEDNDDEAIHTKSRSYCRNKKAENSKKKSPKSNKKPKR
# B15: BAG4 376-457 (Homo sapiens, UniProt O95429); chain TPPSIKKIIHVLEKVQYLEQEVEEFVGKKTDKAYWLLEEMLTKELLELDSVETGGQDSVRQARKEAVCKIQAILEKLEKKGL
# Sequence of UniProt P26039 (whole entry, unmodified, looked up): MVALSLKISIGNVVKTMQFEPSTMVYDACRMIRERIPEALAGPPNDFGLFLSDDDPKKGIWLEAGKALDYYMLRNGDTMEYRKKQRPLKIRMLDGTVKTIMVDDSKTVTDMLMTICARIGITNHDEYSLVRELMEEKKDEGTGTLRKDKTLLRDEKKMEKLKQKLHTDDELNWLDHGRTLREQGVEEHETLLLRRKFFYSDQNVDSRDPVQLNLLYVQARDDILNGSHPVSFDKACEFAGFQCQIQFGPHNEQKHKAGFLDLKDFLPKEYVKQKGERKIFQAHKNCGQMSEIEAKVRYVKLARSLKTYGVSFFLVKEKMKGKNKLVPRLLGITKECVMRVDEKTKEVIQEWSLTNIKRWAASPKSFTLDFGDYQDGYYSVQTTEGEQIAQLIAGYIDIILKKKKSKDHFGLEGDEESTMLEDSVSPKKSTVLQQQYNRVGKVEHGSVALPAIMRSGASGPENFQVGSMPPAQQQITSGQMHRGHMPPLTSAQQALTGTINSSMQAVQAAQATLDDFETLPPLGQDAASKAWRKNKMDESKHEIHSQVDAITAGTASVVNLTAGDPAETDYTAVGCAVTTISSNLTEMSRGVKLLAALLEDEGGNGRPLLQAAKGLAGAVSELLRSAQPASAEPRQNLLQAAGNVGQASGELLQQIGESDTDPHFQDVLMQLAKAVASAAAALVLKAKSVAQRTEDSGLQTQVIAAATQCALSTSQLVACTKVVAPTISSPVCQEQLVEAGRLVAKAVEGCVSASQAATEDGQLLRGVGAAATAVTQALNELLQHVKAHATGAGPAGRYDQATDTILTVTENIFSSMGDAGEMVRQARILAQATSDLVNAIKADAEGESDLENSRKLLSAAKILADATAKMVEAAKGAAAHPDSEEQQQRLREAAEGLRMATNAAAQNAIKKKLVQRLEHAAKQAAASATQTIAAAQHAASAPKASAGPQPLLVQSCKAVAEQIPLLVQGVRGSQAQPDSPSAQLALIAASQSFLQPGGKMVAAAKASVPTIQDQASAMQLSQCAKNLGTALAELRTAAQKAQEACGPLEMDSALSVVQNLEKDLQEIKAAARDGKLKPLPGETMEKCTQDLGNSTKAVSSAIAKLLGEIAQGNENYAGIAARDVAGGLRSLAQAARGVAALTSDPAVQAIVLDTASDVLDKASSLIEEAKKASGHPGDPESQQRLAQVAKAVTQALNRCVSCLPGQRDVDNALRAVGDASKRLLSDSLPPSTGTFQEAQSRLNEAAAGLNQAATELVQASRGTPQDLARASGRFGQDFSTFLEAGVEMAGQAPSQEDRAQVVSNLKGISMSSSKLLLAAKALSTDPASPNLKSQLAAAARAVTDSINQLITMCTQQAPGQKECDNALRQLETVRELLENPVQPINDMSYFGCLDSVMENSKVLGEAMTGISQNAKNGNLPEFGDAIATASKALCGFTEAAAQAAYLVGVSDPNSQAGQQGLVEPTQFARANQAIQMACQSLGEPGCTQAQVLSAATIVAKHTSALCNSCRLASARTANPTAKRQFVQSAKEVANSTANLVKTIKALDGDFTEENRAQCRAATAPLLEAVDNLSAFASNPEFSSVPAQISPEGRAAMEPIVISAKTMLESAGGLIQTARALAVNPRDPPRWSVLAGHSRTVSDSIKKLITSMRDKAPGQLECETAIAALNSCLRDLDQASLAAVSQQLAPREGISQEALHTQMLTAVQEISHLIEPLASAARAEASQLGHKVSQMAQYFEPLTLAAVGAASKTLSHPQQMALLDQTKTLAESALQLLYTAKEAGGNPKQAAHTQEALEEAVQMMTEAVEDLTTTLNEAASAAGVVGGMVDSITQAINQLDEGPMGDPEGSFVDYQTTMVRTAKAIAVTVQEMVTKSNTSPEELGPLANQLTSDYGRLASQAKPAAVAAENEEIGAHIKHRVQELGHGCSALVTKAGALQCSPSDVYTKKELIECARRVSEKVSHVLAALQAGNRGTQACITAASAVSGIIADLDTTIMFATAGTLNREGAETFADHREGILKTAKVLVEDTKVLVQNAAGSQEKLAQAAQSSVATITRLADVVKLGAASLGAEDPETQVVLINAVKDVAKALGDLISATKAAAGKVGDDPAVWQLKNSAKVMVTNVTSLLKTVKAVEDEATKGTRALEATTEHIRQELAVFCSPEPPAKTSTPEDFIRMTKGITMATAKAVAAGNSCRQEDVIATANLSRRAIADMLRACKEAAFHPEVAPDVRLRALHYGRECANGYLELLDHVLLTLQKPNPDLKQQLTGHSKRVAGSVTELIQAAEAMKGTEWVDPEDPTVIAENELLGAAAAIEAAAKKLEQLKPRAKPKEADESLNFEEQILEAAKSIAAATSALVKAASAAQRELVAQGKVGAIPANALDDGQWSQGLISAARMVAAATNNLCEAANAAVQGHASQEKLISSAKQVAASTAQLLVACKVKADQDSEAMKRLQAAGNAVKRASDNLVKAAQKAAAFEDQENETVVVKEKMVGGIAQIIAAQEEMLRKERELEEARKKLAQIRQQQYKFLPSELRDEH
# Sequence of UniProt P01027 (whole entry, looked up): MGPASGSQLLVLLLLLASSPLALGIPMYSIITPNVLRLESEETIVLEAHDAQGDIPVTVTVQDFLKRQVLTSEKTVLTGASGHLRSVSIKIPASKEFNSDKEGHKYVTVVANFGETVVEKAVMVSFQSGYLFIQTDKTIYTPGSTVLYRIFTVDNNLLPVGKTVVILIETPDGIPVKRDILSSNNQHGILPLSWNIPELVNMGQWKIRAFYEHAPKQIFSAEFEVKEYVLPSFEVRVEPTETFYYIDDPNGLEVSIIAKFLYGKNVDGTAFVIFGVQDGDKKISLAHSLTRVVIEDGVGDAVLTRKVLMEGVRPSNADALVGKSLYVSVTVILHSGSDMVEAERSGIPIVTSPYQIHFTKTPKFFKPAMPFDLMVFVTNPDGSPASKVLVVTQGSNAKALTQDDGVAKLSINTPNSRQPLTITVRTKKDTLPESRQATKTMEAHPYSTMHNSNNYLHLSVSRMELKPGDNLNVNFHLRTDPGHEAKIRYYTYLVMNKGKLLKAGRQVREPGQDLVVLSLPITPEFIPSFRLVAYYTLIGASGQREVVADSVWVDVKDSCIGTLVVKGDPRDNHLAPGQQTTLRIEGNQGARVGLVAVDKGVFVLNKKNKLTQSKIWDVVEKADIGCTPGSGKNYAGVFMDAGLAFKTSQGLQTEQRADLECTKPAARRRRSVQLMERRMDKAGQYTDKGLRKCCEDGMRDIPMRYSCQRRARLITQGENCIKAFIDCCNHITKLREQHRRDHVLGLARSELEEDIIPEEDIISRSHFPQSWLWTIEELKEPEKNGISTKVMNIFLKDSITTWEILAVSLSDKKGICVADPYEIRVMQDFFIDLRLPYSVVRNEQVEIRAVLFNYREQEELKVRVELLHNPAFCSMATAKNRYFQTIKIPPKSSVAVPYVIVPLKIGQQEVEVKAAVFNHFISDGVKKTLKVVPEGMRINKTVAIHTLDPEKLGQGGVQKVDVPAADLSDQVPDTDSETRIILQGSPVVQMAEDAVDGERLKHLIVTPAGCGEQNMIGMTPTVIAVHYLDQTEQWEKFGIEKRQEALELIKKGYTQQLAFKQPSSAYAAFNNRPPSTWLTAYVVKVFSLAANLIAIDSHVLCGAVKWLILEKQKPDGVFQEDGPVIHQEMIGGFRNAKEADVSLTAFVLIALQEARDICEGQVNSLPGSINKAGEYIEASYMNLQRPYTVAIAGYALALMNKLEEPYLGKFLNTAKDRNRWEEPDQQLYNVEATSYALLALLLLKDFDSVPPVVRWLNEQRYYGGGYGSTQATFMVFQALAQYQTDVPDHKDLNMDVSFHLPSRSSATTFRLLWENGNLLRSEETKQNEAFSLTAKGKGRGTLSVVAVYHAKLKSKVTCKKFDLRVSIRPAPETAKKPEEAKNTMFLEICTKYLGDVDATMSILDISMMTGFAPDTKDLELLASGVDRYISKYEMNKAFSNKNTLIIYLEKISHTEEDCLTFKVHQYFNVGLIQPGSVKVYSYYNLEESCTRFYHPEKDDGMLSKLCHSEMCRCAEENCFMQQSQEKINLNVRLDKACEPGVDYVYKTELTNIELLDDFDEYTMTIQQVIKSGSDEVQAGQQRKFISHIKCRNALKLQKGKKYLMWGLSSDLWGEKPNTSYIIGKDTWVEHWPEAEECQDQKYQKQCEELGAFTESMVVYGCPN
# Sequence of UniProt P19438 (whole entry, looked up): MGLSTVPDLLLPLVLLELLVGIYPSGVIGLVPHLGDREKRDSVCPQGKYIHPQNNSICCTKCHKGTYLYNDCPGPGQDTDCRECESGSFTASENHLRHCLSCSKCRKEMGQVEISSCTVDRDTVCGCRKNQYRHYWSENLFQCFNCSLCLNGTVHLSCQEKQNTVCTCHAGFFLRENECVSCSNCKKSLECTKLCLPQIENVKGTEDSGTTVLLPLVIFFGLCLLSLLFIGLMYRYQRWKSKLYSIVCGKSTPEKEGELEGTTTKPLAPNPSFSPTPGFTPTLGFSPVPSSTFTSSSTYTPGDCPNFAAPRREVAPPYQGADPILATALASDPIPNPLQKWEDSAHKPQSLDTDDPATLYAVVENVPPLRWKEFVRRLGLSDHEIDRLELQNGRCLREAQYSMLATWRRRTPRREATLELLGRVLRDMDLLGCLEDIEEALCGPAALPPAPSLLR
Molecule,tested on,assay,system,conditions,how to read,quantity,value
B1 (PIN3 167-286),ROPGAP3,pull-down,,in vitro,,binding,binds
"MPQLNGGGGDDLGANDELISFKDEGEQEEKSSENSSAERDLADVKSSLVNESE (TCF7L2 1-53 (Homo sapiens, UniProt Q9NQB0))","CTNNB1 C619Y/E620K (Homo sapiens, UniProt P35222)",BLI,,,,binding,binds
nonaarginine,PorA peptide pore,"peptide binding, planar bilayer single-channel recording",,"0.5 µM, pH 7.4, +30 mV, trans side, 150 mM KCl",,kon,31.5 ± 3 µM⁻¹ s⁻¹
B2 (ATG13 567-695),"VAC8 1-578 L31R (Saccharomyces cerevisiae, UniProt P39968)",pull-down,,,,binding,binds
B3 (NALCN DII-DIII linker 698-772),STX1A/SNAP25 (Homo sapiens),SEC,peptide,,,binding,binds
B4 (NuoA),"MSMEG_2064 (Mycolicibacterium smegmatis, UniProt A0QU37)",cryo-EM,,,,binding,binds
B5 (NYV1),"VAM3 (Saccharomyces cerevisiae, UniProt Q12241)",co-IP,,,,binding,binds
"DNIKHVPGGGSVQIVYKPV (MAPT 295-313 (Homo sapiens, UniProt P10636-8))","MAPT 255-441 (Homo sapiens, UniProt P10636-8)","ThT fluorescence, TEM",peptide,,,binding,binds
B6 (PIN3 167-479),ROPGAP3,pull-down,,4 °C,,binding,binds
heparin sodium,,,healthy Chinese adult volunteers,"continuous intravenous infusion, 8 IU/kg/h, 5 days",,positive urine leukocyte esterase,25%
B7 (atpD 1-464),"atpA 1-514 (Acinetobacter baumannii, UniProt A3M142)",cryo-EM,,,,binding,binds
"HAG2 (Arabidopsis thaliana, UniProt Q9FJT8)","Histone H4 (Homo sapiens, UniProt P62805)",pull-down,,,,binding,binds
"NuoH (Mycolicibacterium smegmatis, UniProt A0QU29)","nuoD (Mycolicibacterium smegmatis, UniProt A0QU33)",cryo-EM,,,,binding,binds
B8 (Cbx1),"Cbx5 (Mus musculus, UniProt Q61686)",fluorescence polarization,,,,binding,binds
aspterric acid,,hypocotyl length,Arabidopsis thaliana Col-0 seeds,50 µg/mL,,inhibition,98.9%
B9 (VPS29),"BLI (Arabidopsis thaliana, UniProt Q9LIQ9)",pull-down,,,,binding,binds
insulin human,,item: MAPK10 mRNA,"uninfected mouse, brain","i.p., dose not given",relative to: PBS,fold change,1.01
"KLLITIHDRKEFAKFEEERARAKWDTANNPLYKEATSTFTNITYRGT (ITGB3 742-788 (Homo sapiens, UniProt P05106))",TLN1 head 1-405 del139-168 (UniProt P26039),pull-down,,GST-β3 tail,,binding,binds
B10 (ROP6),ROPGAP3,pull-down,,in vitro,,binding,binds
LQLQKGSDTEAQCE (INTS3 584-597; pS590/pT592),"NBN 1-334 T158A (Homo sapiens, UniProt O60934)",ITC,peptide,,,binding,binds
B11 (CENPW K29A/K30A/R34A/E36A),"CENPT (Homo sapiens, UniProt Q96BT3)",pull-down,,,,binding,binds
"MSI3 (Arabidopsis thaliana, UniProt O22469)","Histone H3.1 (Homo sapiens, UniProt P68431)",pull-down,,,,binding,binds
NNDNPLFKSA (ITGB2 residues 748-757 (Homo sapiens)),"TLN1 head domain 1-430 del139-168, fused to integrin β2 (UniProt P26039)",crystal structure,peptide,,,binding,binds
B12 (CLTC 1-363),"EPS15 481-896 (Homo sapiens, UniProt P42566)",NMR titration,,,,binding,binds
B13 (mutL 460-658 Q515A),"dnaN beta clamp 1-367 (Neisseria gonorrhoeae, UniProt A0ACH0F8P7)",SEC,,,,binding,binds
HVLVMSATRR,,,"peptide, C57BL/6J mice, male, serum","subcutaneous osmotic pump, 3 mg/kg/day peptide basis, 8 weeks",,glucose,276 mg/dL and 255 mg/dL and 304 mg/dL and 226 mg/dL
B14 (Atg32 1-381),"ATG11, Alexa Fluor 594 label (Saccharomyces cerevisiae, UniProt Q12527)",fluorescence microscopy,liposomes,,,binding,binds
"C3a (Mus musculus, UniProt P01027)","C3ar1 (Mus musculus, UniProt O09047)",cryo-EM,,,,binding,binds
B15 (BAG4 376-457),"TNFRSF1A 356-441 (Homo sapiens, UniProt P19438)",fluorescence polarisation,,,,binding,binds

# Repeated from above:
Molecule,tested on,assay,system,conditions,how to read,quantity,value
B15 (BAG4 376-457),"TNFRSF1A 356-441 (Homo sapiens, UniProt P19438)",fluorescence polarisation,,,,binding,binds
B4 (NuoA),"MSMEG_2064 (Mycolicibacterium smegmatis, UniProt A0QU37)",cryo-EM,,,,binding,binds
B14 (Atg32 1-381),"ATG11, Alexa Fluor 594 label (Saccharomyces cerevisiae, UniProt Q12527)",fluorescence microscopy,liposomes,,,binding,binds
